Published values from different studies.
Protocols differ between the studies behind these lines. Several values in a cell are separate wells, animals, samples, runs or records. ± gives the spread as reported.
CTSK: Cathepsin K (CTSK, Homo sapiens, UniProt P43235)
UniProt Q16539, sequence (whole entry, looked up): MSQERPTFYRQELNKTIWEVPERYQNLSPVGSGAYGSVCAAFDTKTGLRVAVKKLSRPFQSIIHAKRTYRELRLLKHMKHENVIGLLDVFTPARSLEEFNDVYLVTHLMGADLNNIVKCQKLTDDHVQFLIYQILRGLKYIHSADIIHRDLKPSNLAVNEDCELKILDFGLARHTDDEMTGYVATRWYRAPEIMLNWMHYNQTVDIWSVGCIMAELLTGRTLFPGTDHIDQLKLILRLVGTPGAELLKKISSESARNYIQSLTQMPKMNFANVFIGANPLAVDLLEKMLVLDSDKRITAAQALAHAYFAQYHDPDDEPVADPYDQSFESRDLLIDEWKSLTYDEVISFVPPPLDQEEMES
UniProt Q96KB5, sequence (whole entry, looked up): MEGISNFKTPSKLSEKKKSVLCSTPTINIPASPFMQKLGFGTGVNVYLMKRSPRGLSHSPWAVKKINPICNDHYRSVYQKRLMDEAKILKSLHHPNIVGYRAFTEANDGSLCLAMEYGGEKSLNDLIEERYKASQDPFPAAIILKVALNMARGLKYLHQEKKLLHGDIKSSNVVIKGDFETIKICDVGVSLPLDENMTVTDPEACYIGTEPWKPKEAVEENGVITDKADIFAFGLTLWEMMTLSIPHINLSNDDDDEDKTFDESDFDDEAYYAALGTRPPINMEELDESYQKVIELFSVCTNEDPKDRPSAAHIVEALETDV
UniProt P43235, sequence (whole entry, looked up): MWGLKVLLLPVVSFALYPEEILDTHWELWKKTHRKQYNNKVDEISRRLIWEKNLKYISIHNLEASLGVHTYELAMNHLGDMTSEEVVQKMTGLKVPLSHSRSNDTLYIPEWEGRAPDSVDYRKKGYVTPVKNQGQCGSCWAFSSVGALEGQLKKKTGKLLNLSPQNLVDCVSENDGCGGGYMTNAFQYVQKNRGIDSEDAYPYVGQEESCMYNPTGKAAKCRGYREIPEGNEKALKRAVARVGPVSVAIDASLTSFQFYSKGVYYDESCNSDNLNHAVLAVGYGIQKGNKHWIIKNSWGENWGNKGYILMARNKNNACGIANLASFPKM
UniProt Q76MJ5, sequence (whole entry, looked up): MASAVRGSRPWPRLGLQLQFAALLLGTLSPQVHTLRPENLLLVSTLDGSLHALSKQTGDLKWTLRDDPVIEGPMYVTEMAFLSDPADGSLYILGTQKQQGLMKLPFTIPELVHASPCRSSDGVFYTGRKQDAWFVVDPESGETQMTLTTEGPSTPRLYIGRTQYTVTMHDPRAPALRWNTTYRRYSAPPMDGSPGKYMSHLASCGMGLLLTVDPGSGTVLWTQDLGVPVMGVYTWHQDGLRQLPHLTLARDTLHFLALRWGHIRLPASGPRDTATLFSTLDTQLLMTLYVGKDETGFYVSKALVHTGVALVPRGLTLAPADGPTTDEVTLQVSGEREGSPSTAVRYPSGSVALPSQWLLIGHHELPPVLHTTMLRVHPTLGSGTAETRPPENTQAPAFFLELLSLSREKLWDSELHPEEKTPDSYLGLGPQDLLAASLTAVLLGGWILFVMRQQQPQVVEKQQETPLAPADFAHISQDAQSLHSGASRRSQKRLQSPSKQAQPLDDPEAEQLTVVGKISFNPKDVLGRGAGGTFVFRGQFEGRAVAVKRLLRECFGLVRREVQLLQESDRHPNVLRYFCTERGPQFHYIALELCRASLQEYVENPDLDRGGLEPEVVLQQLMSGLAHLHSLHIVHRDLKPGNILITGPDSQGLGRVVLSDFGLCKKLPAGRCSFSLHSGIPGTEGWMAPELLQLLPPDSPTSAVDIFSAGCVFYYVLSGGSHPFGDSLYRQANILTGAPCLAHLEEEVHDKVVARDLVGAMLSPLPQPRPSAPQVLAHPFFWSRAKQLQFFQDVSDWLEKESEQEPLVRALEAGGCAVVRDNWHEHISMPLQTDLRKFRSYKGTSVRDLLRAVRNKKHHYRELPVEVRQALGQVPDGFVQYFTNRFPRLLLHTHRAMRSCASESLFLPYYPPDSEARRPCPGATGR
UniProt Q9HB29, sequence (whole entry, looked up): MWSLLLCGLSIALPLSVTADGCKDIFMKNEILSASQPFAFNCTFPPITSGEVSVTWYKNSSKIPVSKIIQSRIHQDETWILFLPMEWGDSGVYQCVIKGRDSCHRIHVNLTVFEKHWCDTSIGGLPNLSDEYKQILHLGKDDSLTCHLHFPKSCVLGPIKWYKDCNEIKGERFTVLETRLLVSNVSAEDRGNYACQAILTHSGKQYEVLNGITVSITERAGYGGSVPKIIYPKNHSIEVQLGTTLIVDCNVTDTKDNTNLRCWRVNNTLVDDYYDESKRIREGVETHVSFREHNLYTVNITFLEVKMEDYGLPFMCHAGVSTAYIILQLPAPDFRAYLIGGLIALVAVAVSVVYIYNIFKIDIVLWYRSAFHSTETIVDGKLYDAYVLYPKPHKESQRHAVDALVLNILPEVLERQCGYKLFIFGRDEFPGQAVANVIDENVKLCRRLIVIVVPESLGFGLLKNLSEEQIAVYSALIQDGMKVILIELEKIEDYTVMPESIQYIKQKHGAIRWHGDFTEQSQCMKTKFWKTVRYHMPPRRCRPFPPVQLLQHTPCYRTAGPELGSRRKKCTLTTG
UniProt P54292, sequence (whole entry, looked up): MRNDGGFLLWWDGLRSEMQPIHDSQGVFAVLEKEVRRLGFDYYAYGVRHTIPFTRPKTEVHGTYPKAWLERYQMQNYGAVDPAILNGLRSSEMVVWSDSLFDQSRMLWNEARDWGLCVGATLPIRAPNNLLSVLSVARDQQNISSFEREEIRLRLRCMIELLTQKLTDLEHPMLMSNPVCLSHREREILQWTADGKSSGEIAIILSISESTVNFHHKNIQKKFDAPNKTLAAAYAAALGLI
UniProt P08254, sequence (whole entry, looked up): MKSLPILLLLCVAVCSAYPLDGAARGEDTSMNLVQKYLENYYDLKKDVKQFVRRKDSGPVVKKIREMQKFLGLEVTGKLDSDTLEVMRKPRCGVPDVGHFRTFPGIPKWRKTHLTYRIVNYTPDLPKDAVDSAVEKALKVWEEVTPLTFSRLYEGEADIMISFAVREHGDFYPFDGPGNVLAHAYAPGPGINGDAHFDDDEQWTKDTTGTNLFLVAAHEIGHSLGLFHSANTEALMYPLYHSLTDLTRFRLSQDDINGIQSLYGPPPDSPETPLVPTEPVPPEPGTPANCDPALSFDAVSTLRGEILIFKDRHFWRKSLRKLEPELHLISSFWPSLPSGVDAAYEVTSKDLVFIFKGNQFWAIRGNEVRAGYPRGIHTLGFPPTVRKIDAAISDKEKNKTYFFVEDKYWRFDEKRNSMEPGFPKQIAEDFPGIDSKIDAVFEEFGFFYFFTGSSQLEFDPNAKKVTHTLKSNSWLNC
UniProt P14778, sequence (whole entry, looked up): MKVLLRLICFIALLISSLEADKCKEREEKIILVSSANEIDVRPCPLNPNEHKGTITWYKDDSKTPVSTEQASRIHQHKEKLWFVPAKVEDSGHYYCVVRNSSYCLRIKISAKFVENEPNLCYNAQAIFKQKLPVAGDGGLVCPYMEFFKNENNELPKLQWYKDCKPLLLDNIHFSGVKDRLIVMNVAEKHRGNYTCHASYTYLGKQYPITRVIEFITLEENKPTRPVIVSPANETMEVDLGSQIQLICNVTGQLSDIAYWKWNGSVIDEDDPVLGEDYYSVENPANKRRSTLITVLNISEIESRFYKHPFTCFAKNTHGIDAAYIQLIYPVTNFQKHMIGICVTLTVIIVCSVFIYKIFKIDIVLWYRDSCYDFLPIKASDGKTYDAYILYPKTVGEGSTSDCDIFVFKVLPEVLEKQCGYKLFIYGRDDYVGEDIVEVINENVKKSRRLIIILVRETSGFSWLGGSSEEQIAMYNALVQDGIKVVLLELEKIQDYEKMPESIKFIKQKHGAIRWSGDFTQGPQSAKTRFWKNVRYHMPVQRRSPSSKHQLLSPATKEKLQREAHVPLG
UniProt P07237, sequence (whole entry, looked up): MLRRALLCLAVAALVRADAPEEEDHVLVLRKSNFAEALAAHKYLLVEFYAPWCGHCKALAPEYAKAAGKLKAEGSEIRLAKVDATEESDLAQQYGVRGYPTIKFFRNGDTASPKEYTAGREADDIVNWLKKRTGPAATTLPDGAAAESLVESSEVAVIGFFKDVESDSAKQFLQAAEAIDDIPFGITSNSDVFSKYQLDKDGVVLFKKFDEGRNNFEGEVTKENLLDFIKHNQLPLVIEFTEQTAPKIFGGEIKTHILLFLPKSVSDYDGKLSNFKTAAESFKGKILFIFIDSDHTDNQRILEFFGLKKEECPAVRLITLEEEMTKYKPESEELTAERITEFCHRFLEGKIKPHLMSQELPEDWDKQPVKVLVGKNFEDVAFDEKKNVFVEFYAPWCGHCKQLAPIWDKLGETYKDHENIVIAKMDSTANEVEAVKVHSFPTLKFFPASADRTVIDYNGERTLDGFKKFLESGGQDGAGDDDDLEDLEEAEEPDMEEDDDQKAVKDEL
UniProt P45983, sequence (whole entry, looked up): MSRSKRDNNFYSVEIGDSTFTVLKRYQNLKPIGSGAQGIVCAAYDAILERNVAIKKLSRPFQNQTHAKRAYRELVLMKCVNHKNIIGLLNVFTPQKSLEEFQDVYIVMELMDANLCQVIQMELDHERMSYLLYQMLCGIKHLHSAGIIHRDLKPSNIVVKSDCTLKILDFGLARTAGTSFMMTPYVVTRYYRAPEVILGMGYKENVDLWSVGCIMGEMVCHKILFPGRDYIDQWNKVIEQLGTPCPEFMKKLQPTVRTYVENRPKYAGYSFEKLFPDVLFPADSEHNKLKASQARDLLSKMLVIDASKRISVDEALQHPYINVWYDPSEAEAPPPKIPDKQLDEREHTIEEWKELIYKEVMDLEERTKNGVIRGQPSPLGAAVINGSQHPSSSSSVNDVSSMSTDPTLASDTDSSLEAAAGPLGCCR

| SMILES | target or system | test | system | setting | scale | endpoint | value |
| --- | --- | --- | --- | --- | --- | --- | --- |
| COc1ccccc1-c1ccncc1C(=O)Nc1nnc(OCc2ccc(Cl)cc2)s1 | DNA polymerase theta, helicase domain (POLQ, Homo sapiens, UniProt O75417) | ATPase activity, ADP-Glo |  | 0.03 µM, together with: ATP 100 µM |  | remaining activity | 52% |
| COC(=O)c1ccc2c(c1)nc(NC(=O)c1ccccc1)n2CCCc1ccccc1 | HDAC6 (Homo sapiens, UniProt Q9UBN7) | enzyme activity, inhibitor |  | 10 µM |  | remaining activity | 84% |
| COC(=O)[C@@]1(C(C)C)C=C(C(=O)Nc2cccc(C(=O)Nc3ccc(Nc4nccc(-c5cccnc5)n4)c(C)c3)c2)C(=O)CC1 | MAPK8 (Homo sapiens, UniProt P45983) | kinase activity, inhibitor |  | 14.81 µM, unit not given, together with: 10 mM glutathione | reference: no inhibitor | remaining activity | 0.146 |
| C=CC(=O)Nc1cccc(Cn2ncc3cnc(Nc4cnn(CCOC)c4)nc32)c1 | ROCK1 human | binding, KINOMEscan |  | 100 nM | lower = stronger binding | percent of control | 74% |
| CCCC(O)c1nn[nH]c1-c1ccc(O)c(OC)c1 (stereo not shown) | rhlR (Pseudomonas aeruginosa, UniProt P54292) | reporter gene, inhibitor, quorum sensing reporter strain |  | 10 µM, 1.5 h | reference: DMSO | remaining activity | 96% |
| COc1ccc(NC(=O)Nc2ccc3c(c2)C(=O)N(C(C)CO)CC(C)C(CN(C)Cc2ccc4c(c2)OCO4)O3)cc1 (stereo not shown) | CK1 (yeast) | kinase activity |  | 0.03 µM | reference: control | remaining activity | 122% |
| CN(Cc1cc(C2CC2)on1)C(=O)c1cccc(-c2ccc3c(c2)CCO3)c1 | Acetyl-CoA synthetase (Cryptococcus neoformans, UniProt J9VFT1) | enzyme activity, inhibitor, coupled pyrophosphate |  | 3.91 µM |  | remaining activity | 75.5% and 70.5% |
| COC(=O)[C@@]1(C)C=C(C(=O)Nc2cccc(C(=O)Nc3ccc(Nc4nccc(-c5cccnc5)n4)c(C)c3)c2)C(=O)CC1 | MAPK14 (Homo sapiens, UniProt Q16539) | enzyme activity, inhibitor |  | 1.646 µM, unit not given | reference: vehicle | remaining activity | 0.917 and 1.16 and 0.96 |
| O[C@@H](COc1ccc2cc(Br)ccc2c1)Cn1ccnc1 | Trypanosoma cruzi | reporter mRNA translation, inhibitor, measured: Renilla luciferase mRNA | cell-free extract | concentration not given, test 2 | reference: positive over negative control | translation activity | 97.8% |
| CNS(=O)(=O)Nc1nccc(Cc2c(C)c3ccc(Oc4ncccc4F)cc3oc2=O)c1F | T3M4 | cell viability |  | 7 days |  | IC50 | 4.96 nM |
| COC(=O)CN1CCCc2cc3cc(C(=O)NC(Cc4ccc(C)cc4)C(=O)NCC=CS(=O)(=O)c4ccccc4)c(=O)oc3cc21 (stereo not shown) | CTSK | enzyme activity, inhibitor, fluorescence |  | 5 µM |  | remaining activity | 22% |
| CN(C)CCCCCN(C)Cc1cc2ccccc2o1 | Trypanosoma cruzi | reporter mRNA translation, inhibitor, measured: Renilla luciferase mRNA | cell-free extract | concentration not given, test 3 | reference: positive over negative control | translation activity | 95.2% |
| COC(=O)c1cc2cc3c(cc2oc1=O)N(CC(=O)NC(Cc1cccc(Cl)c1)C(=O)NCC=CS(=O)(=O)c1ccccc1)CCC3 (stereo not shown) | CTSK | enzyme activity, inhibitor, fluorescence |  | 5 µM |  | remaining activity | 43% |
| COCC12C(=O)NC3C4(C(OC)CC1O)C1CC5(O)C(OC)C(O)C(OC(C)=O)(C1C5OC(=O)c1ccccc1)C3(O)C(OC)C24 (stereo not shown) | PBK (Homo sapiens, UniProt Q96KB5) | kinase activity, inhibitor, ProQinase kinase profiling |  | 25 µM | reference: control | remaining activity | 104% and 94% |
| Cn1cnnc1Sc1c2c(c(C#N)c3nc4ccccc4n13)CCCC2 | P4HB (Homo sapiens, UniProt P07237) | insulin turbidity |  | 100 µM |  | remaining activity | 89.6 ± 7.1% |
| COC1CN([C@H]2CC[C@H]([C@@]3(C)Oc4c(Cl)cc(C(=O)NCc5c(SC)cc(C)[nH]c5=O)c(C)c4O3)CC2)C1 |  | RNA-seq, measured: HOXA4 mouse homolog | mouse, HT-1376 xenograft, whole blood | dose not given | reference: vehicle | log2 fold change | 0.976 |
| C[C@](C(=O)NC1CCOCC1)(c1cncnc1)N(C(=O)[C@H](F)Cl)c1ccc(OC(F)(F)Cl)cc1 | Stromelysin-1 (MMP3, Homo sapiens, UniProt P08254) | enzyme activity, inhibitor |  | 10 µM |  | remaining activity | 100% |
| O=C=[N][Ru-4]123([n]4c5ccc(O)cc5c5c6c(c7cc(F)c[n+]1c7c54)C(=O)NC6=O)[S+]1CC[S+]2CC[S+]3CC1 (stereo not shown) | CK1 (yeast) | kinase activity, inhibitor |  | 100 nM, together with: 10 µM ATP |  | remaining activity | 14% |
| CC(C)[C@@H]1NC(=O)[C@H](Cc2ccccc2)NC(=O)CSC[C@@H](C(N)=O)NC(=O)[C@H](CCC(=O)O)NC(=O)[C@H](CO)NC(=O)[C@H](Cc2c[nH]c3cccc(Cl)c23)NC(=O)[C@H](C2CCCCC2)NC(=O)[C@H](C(C)C)NC(=O)[C@H](Cc2ccc(O)cc2)NC(=O)[C@H](CC(=O)O)NC(=O)[C@H](Cc2c[nH]c3ccccc23)NC(=O)[C@H](Cc2ccc(N)nc2)NC(=O)[C@H](Cc2c[nH]c3ccc(Cl)cc23)NC(=O)[C@H](CCC(=O)O)NC1=O | Interleukin-1 receptor-like 2 (IL1RL2, Homo sapiens, UniProt Q9HB29) | reporter gene (SEAP), inhibitor, HEK-Blue IL-36R reporter | HEK-Blue IL-36R cells | 0.0017 µM, 6 h, together with: IL-36β 0.1 ng/mL |  | remaining activity | 94.8% |
| Nc1ncc(-c2cc(-c3cnn(CC(F)(F)F)c3)ncc2F)nc1C(=O)NC1CNCC(F)C1 (stereo not shown) | ERN2 (Homo sapiens, UniProt Q76MJ5) | enzyme activity |  | 1 µM | reference: DMSO control | remaining activity | 95.8% |
| N#Cc1cnc2sc(C(=O)O)cc2c1N1CCc2[nH]nc(C(=O)N[C@@H](CC(=O)NCCOCCN3CCOCC3)c3cccc(Br)c3)c2C1 | IL1R1 (Homo sapiens, UniProt P14778) | IL-8 release, antagonist | A-431 | 32 µM, 18 h, together with: IL-1β 5 ng/mL | reference: untreated | remaining activity | 83% |
| Cc1ncsc1-c1ccc(C(C)NC(=O)C2CC(O)CN2C(=O)C(NC(=O)CCCCCCCCCCN2CCCC(Nc3ncc(Cl)c(Nc4ccccc4S(=O)(=O)C(C)C)n3)C2)C(C)(C)C)cc1 (stereo not shown) | 22Rv1 | RNA-seq, measured: ZNF252P |  | concentration not given | reference: DMSO | log2 fold change | -1.36 |
